Measurements pooled from the literature.
Each line is one published result; not all experiments were run side by side. Values joined by “and” are separate records of one study, mostly repeats; a detail may differ.
Target: Activated CDC42 kinase 1 (TNK2, Homo sapiens, UniProt Q07912)

Under “activity vs control”, `O=C(Cc1ccc(OCc2ccccc2)cc1)NC1(C(=O)O)CCN(C(=O)c2ccc(-c3cccc(Cl)c3)cc2)CC1` is recorded as 95% (enzyme activity, inhibitor; 10 µM).
For `COc1ccc(NC(=O)Nc2ccc3c(c2)C(=O)N(C(C)CO)CC(C)C(CN(C)Cc2ccc4c(c2)OCO4)O3)cc1` (stereo not shown), the remaining activity was 99% (kinase activity, KinaseProfiler; 0.03 µM, species human; baseline: control).
`CCN1CCN(Cc2ccc(NC(=O)c3ccc(C)c(NC(=O)c4cncc(-c5cnn(C)c5)c4)c3)cc2C(F)(F)F)CC1` has a remaining binding of 58% (binding, competition with immobilised ligand; 1 µM).
`CCn1cc(C(=O)O)c(=O)c2c(N)c(F)c(NC3CCCCC3)cc21` gave an inhibition of 4.9% (kinase activity; 0.1 µM, added: ATP at Km).
The remaining binding of `C=CC(=O)N1CCCC(n2c(=O)c3ncccc3n(Cc3ccc(Oc4ccccc4)cc3)c2=O)C1` (stereo not shown) is reported as 87% (cell-free assay, competition with immobilised ligand; 1 µM).
`COc1c(Cl)cccc1Nc1c(-c2ccncc2C#C[C@@]2(C)CCCN2C(=O)/C=C/CN(C)C)[nH]c2c1C(=O)NCC2` gave a remaining binding of 100% (binding, competition with immobilised ligand; 3 µM).
The Hill slope of `Cc1ccc(C(=O)Nc2ccc(CN3CCN(C)CC3)c(C(F)(F)F)c2)cc1C#Cc1cnc2cccnn12` is reported as 1.77 (target engagement, NanoBRET; human cells).
`COc1cc(Nc2nccc(-c3cnn4nc(OC)ccc34)n2)cc(C(F)(F)F)c1` has a remaining binding of 88% (binding, competition with immobilised ligand; 1 µM).
`CNC1C[S+]2CC[S+]3CC[S+](C1)[Ru-4]321([N]=C=S)[n]2c3ccc(OC)cc3c3c4c(c5cc(F)c[n+]1c5c32)C(=O)NC4=O` (stereo not shown) has a remaining binding of 100% (KinomeScan; 0.1 µM; baseline: untreated).
The remaining binding of `Nc1ncc2c(n1)-c1c([nH]c3ccc(C4=CCOCC4)cc13)CCC2` is reported as 100% (binding, competition with immobilised ligand; 1 µM).
`NC(=O)C[C@H]1CCc2sc3ncnc(O[C@H]4CC[C@H](N5CCOCC5)CC4)c3c21` gave an inhibition of 11% (enzyme activity, inhibitor; 10 µM).
For `Cc1ccc(-c2c(/C=C(\C#N)C(=O)NC(C)C)n(CCCO)c3ncnc(N)c23)cc1`, the remaining binding was 100% (cell-free assay, competition with immobilised ligand; 1 µM).
`Cc1cccc(O[C@H]2CCC[C@@H](C(C)CNCc3ccncc3)C2)c1` (relative stereo) has an inhibition of -2% (enzyme activity, inhibitor; 10 µM).
The remaining activity of `COc1c(OCCCN2CCOCC2)ccc2c1N=C(NC(=O)c1cnc(N)nc1)N1CCN=C21` is reported as 141% (kinase activity, inhibitor; 1 µM; baseline: untreated control).
For `C=CC(=O)N1CCc2ccc(-n3c(=O)ccc4cnc5ccc(-c6cnn(C)c6)cc5c43)cc21`, the remaining binding was 100% (KINOMEscan; 1 µM; baseline: DMSO control).
`C=CC(=O)Nc1cccc(-c2cnc3[nH]cc(C(=O)NC(C)(C)C)c3n2)c1` gave an inhibition of 2% and 4% (kinase activity; 0.1 µM).
For `Cc1cnc2nc1Nc1cccc(c1)COC/C=C/COCc1cc(ccc1OCCN1CCOCC1)N2`, the remaining binding was 36% (binding, competition with immobilised ligand; 0.1 µM).
`COC(=O)[C@@]1(C)C=C(C(=O)Nc2cccc(C(=O)Nc3ccc(Nc4nccc(-c5cccnc5)n4)c(C)c3)c2)C(=O)CC1` has a remaining binding of 95% (binding, competition with immobilised ligand; 1 µM).
`CN1CCN(Cc2ccc(-c3ccc(CO[C@H]4CCC[C@@H]4NC(=O)c4cc(-c5cnn(C)c5)cnc4N)cc3)cc2)CC1` has an inhibition of 6% (enzyme activity, inhibitor; 0.1 µM).

Some of these lines once more:
`NC(=O)C[C@H]1CCc2sc3ncnc(O[C@H]4CC[C@H](N5CCOCC5)CC4)c3c21` gave an inhibition of 11% (enzyme activity, inhibitor; 10 µM).
For `Cc1ccc(-c2c(/C=C(\C#N)C(=O)NC(C)C)n(CCCO)c3ncnc(N)c23)cc1`, the remaining binding was 100% (cell-free assay, competition with immobilised ligand; 1 µM).
